Measurements pooled from the literature.
MTNR1A: Melatonin receptor type 1A (MTNR1A, Homo sapiens, UniProt P48039)
UniProt P48039, sequence (whole entry, looked up): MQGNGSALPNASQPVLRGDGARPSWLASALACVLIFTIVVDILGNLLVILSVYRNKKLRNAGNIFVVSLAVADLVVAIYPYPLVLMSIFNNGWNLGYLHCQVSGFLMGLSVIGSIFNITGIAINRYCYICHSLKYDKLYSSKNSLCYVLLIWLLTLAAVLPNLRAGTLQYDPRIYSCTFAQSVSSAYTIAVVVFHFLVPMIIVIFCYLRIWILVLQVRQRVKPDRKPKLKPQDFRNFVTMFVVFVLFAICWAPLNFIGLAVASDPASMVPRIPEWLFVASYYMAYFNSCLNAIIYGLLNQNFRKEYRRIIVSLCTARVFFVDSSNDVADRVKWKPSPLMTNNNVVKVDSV
CSNK1D: Casein kinase I isoform delta (CSNK1D, Homo sapiens, UniProt P48730)
UniProt P48730, sequence (whole entry, looked up): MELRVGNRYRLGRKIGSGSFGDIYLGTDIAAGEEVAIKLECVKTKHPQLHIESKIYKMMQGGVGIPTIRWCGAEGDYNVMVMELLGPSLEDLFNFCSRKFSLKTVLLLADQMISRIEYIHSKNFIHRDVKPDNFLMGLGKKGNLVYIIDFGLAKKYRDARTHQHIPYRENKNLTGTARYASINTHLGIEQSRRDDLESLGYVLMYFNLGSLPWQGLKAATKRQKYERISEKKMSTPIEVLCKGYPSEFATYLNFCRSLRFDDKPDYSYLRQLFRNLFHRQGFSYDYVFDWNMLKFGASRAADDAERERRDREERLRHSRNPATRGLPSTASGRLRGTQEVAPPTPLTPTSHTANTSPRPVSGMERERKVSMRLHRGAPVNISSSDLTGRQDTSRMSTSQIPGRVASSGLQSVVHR
CA9: Carbonic anhydrase 9 (CA9, Homo sapiens, UniProt Q16790)
CSNK1A1: Casein kinase I isoform alpha (CSNK1A1, Homo sapiens, UniProt P48729)
UniProt P48729, sequence (whole entry, looked up): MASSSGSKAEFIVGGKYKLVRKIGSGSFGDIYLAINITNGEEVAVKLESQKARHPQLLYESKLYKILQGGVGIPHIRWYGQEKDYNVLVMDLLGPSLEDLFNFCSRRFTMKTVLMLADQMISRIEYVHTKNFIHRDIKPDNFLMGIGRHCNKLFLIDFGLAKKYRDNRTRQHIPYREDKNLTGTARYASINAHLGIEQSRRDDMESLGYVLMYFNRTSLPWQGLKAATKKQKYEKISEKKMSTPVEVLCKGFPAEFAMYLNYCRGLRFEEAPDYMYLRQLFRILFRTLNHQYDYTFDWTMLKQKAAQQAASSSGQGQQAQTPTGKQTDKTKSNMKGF
UniProt P30542, sequence (whole entry, looked up): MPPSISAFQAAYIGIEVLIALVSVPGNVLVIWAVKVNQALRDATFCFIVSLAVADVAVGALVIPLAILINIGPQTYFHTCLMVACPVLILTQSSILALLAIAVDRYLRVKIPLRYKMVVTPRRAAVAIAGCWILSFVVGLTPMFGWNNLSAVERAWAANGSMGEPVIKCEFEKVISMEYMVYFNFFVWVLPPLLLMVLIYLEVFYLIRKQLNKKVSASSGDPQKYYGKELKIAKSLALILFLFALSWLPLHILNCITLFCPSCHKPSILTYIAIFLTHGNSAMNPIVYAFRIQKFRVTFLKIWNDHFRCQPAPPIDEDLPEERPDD

`COc1ccc(CN2CCOc3ccc(Br)cc32)cc1O` gave an EC50 of 55.3 nM (MTNR1A; cAMP, agonist, luciferase).
With `NC(=O)c1ccc(N)cc1Cl` the Kd was > 50000 nM (CSNK1D; binding, SPR).
With `Cn1cc(-c2ccc(NC(=O)Nc3nc(CC(=O)Nc4ccc(S(N)(=O)=O)cc4)cs3)cc2)nn1` the IC50 was 29.5 nM (CA9; enzyme activity, inhibitor).
For `O=c1[nH]c(N2CCCC2)nc2ccccc12`, the Kd was 46300 nM (CSNK1A1; binding, SPR).
The IC50 of `CNC(=O)c1cccc2c1CC(C)N2Cc1ccoc1C(=O)Nc1ccc(S(N)(=O)=O)cc1` (stereo not drawn) is reported as 41.7 nM (CA9; enzyme activity, inhibitor).
With `c1ccc(-c2oc3ncnc(NCCCN4CCOCC4)c3c2-c2ccccc2)cc1` the Kd was > 50000 nM (CSNK1A1; binding, SPR).
With `CCOC(=O)c1nc(N(C)CCc2noc(C)n2)ccc1Br` the EC50 was 69.3 nM (MTNR1A; cAMP, agonist, luciferase).
`CC(SC1=NNC(=C2C=Nc3ccccc32)N1c1ccc(Cl)cc1)C(=O)Nc1ccc(S(N)(=O)=O)cc1` (stereo not drawn) gave an IC50 of 169 nM (CA9; enzyme activity, inhibitor).
For `CC(=O)c1cccc(N(C)CCc2cnccn2)n1`, the EC50 was 378 nM (MTNR1A; cAMP, agonist, luciferase).
For `Cc1ccc(-c2nnc(Nc3ccc(C(=O)N4CCCCC4)cc3)c3ccccc23)cc1S(N)(=O)=O`, the IC50 was 1870 nM (CA9; enzyme activity, inhibitor).
For `O=C(NC1CCCCC1)C(=O)c1c[nH]c2ccccc12`, the Kd was 6000 nM (CSNK1A1; binding, SPR).
`CN(C)c1ncnc2c1ncn2[C@@H]1O[C@H](CO)[C@@H](O)[C@H]1O` has an EC50 of 1800 nM (ADORA1 (Homo sapiens, UniProt P30542); G protein activation, agonist).
With `FC(F)(F)c1cscc1CNc1cccc(-c2nnc[nH]2)c1` the EC50 was 162 nM (MTNR1A; cAMP, agonist, luciferase).
With `Cc1ccc(C(=O)N2CCC(c3cccc(S(N)(=O)=O)c3)CC2)cc1NC(=O)c1ccco1` the IC50 was 37.2 nM (CA9; enzyme activity, inhibitor).
For `CCOC(=O)c1nc(N2CCC(C(N)=O)C2)ccc1Br` (stereo not drawn), the EC50 was 106 nM (MTNR1A; cAMP, agonist, luciferase).
`O=C(COc1cccc2ccccc12)Nc1nc2ccccc2[nH]1` gave a Kd of 1100 nM (CSNK1D; binding, SPR).
`NS(=O)(=O)c1ccc(N2CCOCC2)c(C(=O)Nc2ccc(NC(=O)c3cccs3)cc2)c1` has an IC50 of 40.7 nM (CA9; enzyme activity, inhibitor).
The EC50 of `CCOC(=O)c1nc(N(C)C(C)C[S+](C)[O-])ccc1Br` (stereo not drawn) is reported as 33.8 nM (MTNR1A; cAMP, agonist, luciferase).

Some of these lines once more:
With `NC(=O)c1ccc(N)cc1Cl` the Kd was > 50000 nM (CSNK1D; binding, SPR).
With `Cn1cc(-c2ccc(NC(=O)Nc3nc(CC(=O)Nc4ccc(S(N)(=O)=O)cc4)cs3)cc2)nn1` the IC50 was 29.5 nM (CA9; enzyme activity, inhibitor).
